{"data": "Assay results gathered from unrelated publications", "note": "Each numbered part is a random draw from the data of one study; scales do not carry over between parts."}
{"data": "Study 1", "target": "RNA binding protein fox-1 homolog 2, RRM domain, GST-SBP tag (RBFOX2, Homo sapiens, UniProt O43251-10, residues 100-194)", "method": "RNA Bind-n-Seq", "molecule type": "RNA", "medium": "in vitro", "tested at": "365 nM", "setting": "natural RNA segment, single round, ends assumed", "baseline": "no-protein control", "direction": "higher = stronger binding", "Construct (chain)": "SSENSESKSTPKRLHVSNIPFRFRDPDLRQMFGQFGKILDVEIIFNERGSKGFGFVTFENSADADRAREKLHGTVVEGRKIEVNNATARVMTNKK"}
{"Strand": "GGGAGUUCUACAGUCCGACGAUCAGUUGGGGGGUAGUGGAUCUUAGUGUGGUGUUGCAUGGAGGGGCGAGAUUUUAUAUUUAUAAUCAACACGUGGGUUAACAUGUUUUUUUGAAAUCCAAGCAAUACACAGGUGGAAUUCUCGGGUGCCAA", "RBNS enrichment (R)": 1.22}
{"Strand": "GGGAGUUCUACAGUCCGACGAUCUCUUUGCCUCAGGAGCUGACUCAUGCCAUAGAGAGGGGACUGUAGACCAGGCUGGGGCUGCUGCCCUCCCACACGAGGUACUGAUGGAUCCUGGUUCUAUUCUGGGUAUUUGGAAUUCUCGGGUGCCAA", "RBNS enrichment (R)": 0.338}
{"Strand": "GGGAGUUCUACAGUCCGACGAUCGUUUCAUGCCCCUGGACCAGCCUUAUCUCAGACCUGCUUACCUGCAUGAUGCCUUUUUGGGGGCUGGGGAUUGAGUCUUGCUGCUCUGCCCAGCCCUGUUCUAUUCUGCAUGGAAUUCUCGGGUGCCAA", "RBNS enrichment (R)": 2.47}
{"Strand": "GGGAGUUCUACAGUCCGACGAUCAACACACAUAUAUAUAGUGAUUUCUAAAGAUUUGUUUACUUUUGUGUUUUGUUUUACUGUACUAAGAACUUGUCCUUUCUCCUUGAAUCAAAGUAGGACAUGCAUCAUCCUGGAAUUCUCGGGUGCCAA", "RBNS enrichment (R)": 0.608}
{"Strand": "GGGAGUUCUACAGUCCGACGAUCCCUGUCCUAGGUCAUGAAGGACACUCUGCAGGGUGAAGCACCAGGGAGAGGCCUCGGCUGUCUCCUGUCCCCGGCGGGGUGCCUGCUGUCCGUCCCGCUUUCAUGUUACUUGGAAUUCUCGGGUGCCAA", "RBNS enrichment (R)": 8.14}
{"Strand": "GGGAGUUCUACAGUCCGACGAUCCCUCUAAUAUCCACACAUUCCAUCCCCCCAGCCCCAUGUAGAUGGUGGGGUUAAGACCAUUCUUCAGAUGUGGAAAUGAAGGCUCUGGGAGACCACAGGACAUGCCCAAGUGGAAUUCUCGGGUGCCAA", "RBNS enrichment (R)": 0.876}
{"Strand": "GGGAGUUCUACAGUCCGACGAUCUUCUGUAUUGGUCUCUAGGUGUAGCCUUUACUUCCUUUACUGUUGGCGUGUUAUGCUCCCAGUUCCCCUAUAGAGUCGUCUACACUUCCUCCCUGUGCUCUUCACUGGCCUGGAAUUCUCGGGUGCCAA", "RBNS enrichment (R)": 0.555}
{"Strand": "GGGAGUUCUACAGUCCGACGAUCGUUUACAGGUAGCAAUAGUCAAUUAUUUAACUACUUAGUUGCCACCAGGAGUCACUGAGCCAAUGACUAUCAGCUGCUGACUAAUCUUCACACUGUAGUUAUUGCUUCAUUGGAAUUCUCGGGUGCCAA", "RBNS enrichment (R)": 0.32}
{"data": "Study 2", "target": "Histone acetyltransferase KAT6A, winged helix 1, GST fusion (KAT6A, Homo sapiens, UniProt Q92794, residues 1-85)", "method": "protein binding microarray", "molecule type": "double-stranded DNA, one strand shown", "medium": "in vitro", "tested at": "not given", "setting": "8-mer, flanks averaged, mean of 2 arrays, mostly near background", "baseline": "not given", "direction": "higher = stronger binding", "Target sequence (chain)": "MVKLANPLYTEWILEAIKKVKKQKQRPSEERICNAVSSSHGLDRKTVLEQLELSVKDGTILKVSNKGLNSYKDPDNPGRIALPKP"}
{"Strand": "GAACATCA", "E-score": -0.097}
{"Strand": "CTTTCTTC", "E-score": 0.0314}
{"Strand": "ATTTTTTG", "E-score": -0.0927}
{"Strand": "GAAGGTGA", "E-score": -0.0731}
{"Strand": "AACGGCGA", "E-score": 0.325}
{"Strand": "AGGATAGA", "E-score": -0.192}
{"Strand": "AATCAGAA", "E-score": -0.206}
{"Strand": "ATGCTCCC", "E-score": -0.0127}
{"Strand": "ACTGTTGA", "E-score": -0.142}
{"Strand": "ATCCCGCA", "E-score": 0.166}
{"Strand": "AATGTTGT", "E-score": -0.161}
{"Strand": "CATCGGGC", "E-score": 0.204}
{"Strand": "CATGAGTA", "E-score": 0.0148}
{"data": "Study 3", "target": "Centromere-binding protein 1, full length, His-tagged (CBF1, Saccharomyces cerevisiae, UniProt P17106, residues 1-351)", "method": "competition protein-binding microarray", "molecule type": "double-stranded DNA, one strand shown", "medium": "in vitro", "tested at": "2 µM", "setting": "whole 60-bp probe, lowest competitor level", "together with": "Pho4 competitor, 0.05 µM", "direction": "higher = stronger binding", "UniProt P17106, sequence (whole entry, looked up)": "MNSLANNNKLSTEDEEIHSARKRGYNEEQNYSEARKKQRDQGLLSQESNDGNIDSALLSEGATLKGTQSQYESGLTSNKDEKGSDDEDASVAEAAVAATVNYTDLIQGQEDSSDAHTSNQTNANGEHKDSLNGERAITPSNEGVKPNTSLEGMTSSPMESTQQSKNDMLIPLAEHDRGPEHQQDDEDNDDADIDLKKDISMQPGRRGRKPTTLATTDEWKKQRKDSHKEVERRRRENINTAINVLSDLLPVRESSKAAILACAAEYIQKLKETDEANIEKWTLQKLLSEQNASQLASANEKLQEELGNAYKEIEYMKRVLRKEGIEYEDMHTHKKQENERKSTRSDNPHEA"}
{"Strand": "GAAAAGTGGTATGCACTCGTGGGTATTTTTACAACTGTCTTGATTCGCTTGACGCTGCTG", "fluorescence intensity [a.u.]": 102}
{"Strand": "TTATCGTTGTGTAACCACGTAGAGAATCCCTTATAAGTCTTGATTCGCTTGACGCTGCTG", "fluorescence intensity [a.u.]": 69.9}
{"Strand": "GTCTTGTCTCATTGTCACCGTACTTTCCCCACTTCAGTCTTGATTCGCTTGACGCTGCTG", "fluorescence intensity [a.u.]": 86.5}
{"Strand": "CTTCTGTAAATTTGACGAGTGGGTGGACGCGCCCCGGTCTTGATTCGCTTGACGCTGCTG", "fluorescence intensity [a.u.]": 82}
{"Strand": "TTCCGTCTTGGGAGTCAGGTGGAAGTAACCTGCGGGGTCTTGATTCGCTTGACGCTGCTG", "fluorescence intensity [a.u.]": 144}
{"Strand": "TTCAACGCTTTGAAACACGTGACGAAGATGCGGGTCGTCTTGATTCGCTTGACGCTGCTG", "fluorescence intensity [a.u.]": 6590}
{"Strand": "TTGTTTTTTGTGTGGCATGTGCAGCGAGCGATGAGTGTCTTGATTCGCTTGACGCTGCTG", "fluorescence intensity [a.u.]": 149}
{"Strand": "AAAGCGGTAATTTGAGCCGTGGGTGCAGATATCTATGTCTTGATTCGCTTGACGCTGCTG", "fluorescence intensity [a.u.]": 84.4}
{"Strand": "GACAACGACTTTGCAGACGTGCCGATTCCACCCATCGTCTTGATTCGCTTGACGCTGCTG", "fluorescence intensity [a.u.]": 71.6}
{"data": "Further values, each from its own experiment"}
{"Molecule": "PhoQ, residues 284 288 289 292 302 303 NLCILV", "target": "PhoP, residues 12 14 15 18 19 NQFFI (Escherichia coli, UniProt P23836)", "test": "Sort-seq, item: YFP reporter", "system": "E. coli", "conditions": "PhoQ-PhoP variant library, together with: 10 µM Mg2+", "how to read": "baseline: high Mg2+ state, higher = stronger signaling", "endpoint": "fold induction", "value": 12.1}
{"note": "Some of these lines once more (study 2):"}
{"Strand": "ATTTTTTG", "E-score": -0.0927}
{"Strand": "AATGTTGT", "E-score": -0.161}
{"Strand": "AGGATAGA", "E-score": -0.192}
{"Strand": "ATGCTCCC", "E-score": -0.0127}
